Results collected from several papers.
Parts stem from different laboratories: compare values within a part only.

Study 1
Target: Interferon regulatory factor 3, full length, phosphomimetic (IRF3, Homo sapiens, UniProt Q14653, residues 1-427, S386D/S396D/S398D/S402D/T404D/S405D)
Technique: protein-binding microarray
Molecule type: double-stranded DNA, one strand shown
Medium: in vitro
Concentration: 2540 nM top
Notes: 60-bp whole probe
Added: salmon DNA 0.4 mg/ml
Baseline: random background probes
Direction: higher = stronger binding
Shared flanks, not repeated: GCCTAGCAC … GTCTTGATTCGCTTGACGCTGCTG
Construct (chain): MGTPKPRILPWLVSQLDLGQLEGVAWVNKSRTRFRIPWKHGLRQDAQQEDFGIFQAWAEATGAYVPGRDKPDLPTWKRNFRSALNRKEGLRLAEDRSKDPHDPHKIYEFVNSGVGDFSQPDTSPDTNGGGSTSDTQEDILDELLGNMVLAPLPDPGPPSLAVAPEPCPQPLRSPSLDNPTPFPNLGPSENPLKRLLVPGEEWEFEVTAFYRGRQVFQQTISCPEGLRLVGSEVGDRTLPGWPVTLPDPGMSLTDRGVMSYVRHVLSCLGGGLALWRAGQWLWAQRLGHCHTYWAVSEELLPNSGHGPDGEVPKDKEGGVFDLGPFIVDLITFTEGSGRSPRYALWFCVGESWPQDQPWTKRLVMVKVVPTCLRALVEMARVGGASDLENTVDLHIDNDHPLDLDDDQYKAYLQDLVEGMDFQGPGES
| Sequence | fitted relative affinity [z-score] |
| --- | --- |
| TTAGGTATCCTACGGCTTTAGTGCTAG | 0.382 |
| TGGACTGTGTGTTTGAGTCTGTGCTAG | -0.858 |
| AACGATTTCAGTATCGAGACGTGCTAG | 2.18 |
| GATTCTCCTGCCTCAGCCTCGTGCTAG | 1.28 |
| TCACCAATCATTTTTGCACTGTGCTAG | 1.3 |
| TTAGGTTCCGACACTGGGTTAGTGCTA | 0.881 |
| GACGTTATCGGGTATCGAGACGTGCTA | 0.368 |

Study 2
Target: Centromere-binding protein 1, full length, N-terminal tag (CBF1, Saccharomyces cerevisiae, UniProt P17106, residues 1-351)
Sequence of UniProt P17106 (whole entry, looked up): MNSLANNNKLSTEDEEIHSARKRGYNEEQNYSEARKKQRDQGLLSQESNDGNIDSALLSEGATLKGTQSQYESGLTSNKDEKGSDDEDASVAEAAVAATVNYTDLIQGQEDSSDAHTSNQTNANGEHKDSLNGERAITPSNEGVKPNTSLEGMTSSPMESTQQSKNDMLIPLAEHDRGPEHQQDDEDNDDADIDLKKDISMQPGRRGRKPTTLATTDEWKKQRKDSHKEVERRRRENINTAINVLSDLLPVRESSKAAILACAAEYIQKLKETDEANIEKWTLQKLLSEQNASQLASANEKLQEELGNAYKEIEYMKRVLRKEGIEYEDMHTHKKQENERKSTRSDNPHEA
Technique: protein-binding microarray
Molecule type: double-stranded DNA, one strand shown
Medium: in vitro
Concentration: 0.8 µM
Notes: whole 60-bp probe, no competitor
Direction: higher = stronger binding
Shared flanks, not repeated: … GTCTTGATTCGCTTGACGCTGCTG
| Sequence | fluorescence intensity |
| --- | --- |
| CTAAAAGGTCAGTATTTGGTGATGAAGTTGAATTTC | 511 a.u. |
| GAATTATAGGTATTTTATGTCACGTACGGTTTTTAG | 1360 a.u. |
| CTAGTCTTATTTTGTTAGGTGATGATCTAATTTTTC | 599 a.u. |
| GAATGCCCTTCTCATCTGACCGCTACCCATATCTAG | 560 a.u. |
| CTAGAGTGAGGAGAAAACGTGCAGTTAATAAAATTC | 756 a.u. |
| GAATCCAGTTAGGAGAGCGTGGTGTTCTCATCCTAG | 508 a.u. |

Study 3
Target: Histone acetyltransferase KAT6A, winged helix 2, GST fusion (KAT6A, Homo sapiens, UniProt Q92794, residues 85-181)
Technique: protein binding microarray
Molecule type: double-stranded DNA, one strand shown
Medium: in vitro
Concentration: not given
Notes: 8-mer, flanks averaged, mean of 2 arrays, mostly near background
Baseline: not given
Direction: higher = stronger binding
Residues (chain): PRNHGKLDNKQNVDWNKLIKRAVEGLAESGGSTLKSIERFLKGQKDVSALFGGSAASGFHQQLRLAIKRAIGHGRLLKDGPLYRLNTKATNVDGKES
| Sequence | E-score |
| --- | --- |
| GTCTGAAA | -0.00445 |
| TAATGTAA | -0.0721 |
| AAGGCGGG | 0.0837 |
| GGGGGGAC | -0.00264 |
| GTGTTAAC | 0.0559 |
| CTAAGTCA | -0.00395 |
| CAAGATCA | 0.0073 |
| AATAAGAT | 0.0616 |
| AAGTAAAT | -0.146 |
| ATTCGCGG | 0.143 |

Other studies, line by line
| Substance | target | test | system | conditions | how to read | quantity | result |
| --- | --- | --- | --- | --- | --- | --- | --- |
| PhoQ, residues 284 288 289 292 302 303 SLANKL | PhoP, residues 12 14 15 18 19 QQAYL (Escherichia coli, UniProt P23836) | Sort-seq, measured: YFP reporter | E. coli | PhoQ-PhoP variant library, added: 10 µM Mg2+ | baseline: high Mg2+ state, higher = stronger signaling | fold induction | 6.17 |
